Results pooled from the literature.
A part holds a random share of what one study measured. Substitutions count along the parent as printed.

Study 1 — target: BATF2, bZIP domain (human); method: DHFR protein complementation; matrix: yeast; reference: wild-type JUN-FOS pair; reading: higher = stronger binding
Notes: single substitutions, most at no-binding floor
Starting sequence: JUN, bZIP domain (human); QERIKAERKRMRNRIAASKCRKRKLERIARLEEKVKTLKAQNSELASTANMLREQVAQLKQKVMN; partner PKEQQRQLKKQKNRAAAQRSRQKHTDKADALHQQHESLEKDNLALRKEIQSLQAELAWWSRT
Change | binding fitness
T37N | -0.178 natural log
A49T | -1.08 natural log
K34T | -0.395 natural log
T37W | -0.302 natural log
K34C | -0.355 natural log
A46H | -0.418 natural log
E32C | -0.914 natural log
K36R | -0.181 natural log
N42I | -1.42 natural log
V35H | -1.27 natural log
L45M | -0.655 natural log
T48D | -0.816 natural log
K34D | -0.303 natural log

Study 2 — method: aptamer microarray, sandwich; form: DNA with 2'F-ANA; matrix: in vitro; concentration: 200 nM; together with: Cy3 exosite-II aptamer, 400 nM; reading: higher = stronger binding; strand: GGTTGGTGTGGTTGG
Target: Prothrombin, mature alpha-thrombin (F2, Homo sapiens, UniProt P00734)
Notes: whole 15-mer aptamer, many near background
Modification | mean fluorescence intensity [a.u.]
2'F-ANA at 1 4 7 8 9 10 11 12 14 | 49.5
2'F-ANA at 1 2 3 6 7 9 10 11 13 14 15 | 82.5
2'F-ANA at 1 3 4 5 8 10 12 13 15 | 92.6
2'F-ANA at 3 7 8 10 11 15 | 539
2'F-ANA at 2 3 4 9 15 | 616
2'F-ANA at 1 7 9 11 12 13 14 | 62.9
2'F-ANA at 2 7 8 9 12 13 15 | 651
2'F-ANA at 1 8 12 13 14 15 | 78.9
2'F-ANA at 6 7 8 9 10 11 12 14 15 | 107
2'F-ANA at 3 6 8 9 10 13 | 413
2'F-ANA at 1 2 3 4 8 12 13 14 | 82
2'F-ANA at 3 9 11 14 15 | 585
2'F-ANA at 1 5 8 10 11 14 | 49.2
2'F-ANA at 1 3 4 6 7 8 11 12 | 370
2'F-ANA at 1 2 4 5 6 7 9 10 11 14 | 86.5
2'F-ANA at 1 4 6 9 11 13 14 15 | 49.7
2'F-ANA at 2 3 4 6 9 10 12 13 14 | 157
2'F-ANA at 1 2 4 9 13 14 | 44.8
2'F-ANA at 3 4 6 7 8 10 11 12 14 15 | 182
2'F-ANA at 2 3 4 5 6 8 11 12 13 15 | 100
2'F-ANA at 8 12 13 14 15 | 259

Study 3 — method: DHFR PCA, deep sequencing; matrix: yeast; together with: (+)-ABA 0 µM; reference: wild-type fitted maximum; reading: higher = stronger binding
Target: ABI1, truncated, D143A, DHFR fusion (Arabidopsis thaliana)
Notes: methotrexate growth selection, single substitutions
Starting sequence: PYL1, truncated, DHFR fusion (Arabidopsis thaliana); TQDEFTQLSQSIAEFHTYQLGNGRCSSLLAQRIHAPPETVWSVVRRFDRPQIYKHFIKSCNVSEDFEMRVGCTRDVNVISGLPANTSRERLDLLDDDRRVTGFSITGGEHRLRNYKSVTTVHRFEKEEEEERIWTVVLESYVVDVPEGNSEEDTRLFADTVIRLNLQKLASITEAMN; partner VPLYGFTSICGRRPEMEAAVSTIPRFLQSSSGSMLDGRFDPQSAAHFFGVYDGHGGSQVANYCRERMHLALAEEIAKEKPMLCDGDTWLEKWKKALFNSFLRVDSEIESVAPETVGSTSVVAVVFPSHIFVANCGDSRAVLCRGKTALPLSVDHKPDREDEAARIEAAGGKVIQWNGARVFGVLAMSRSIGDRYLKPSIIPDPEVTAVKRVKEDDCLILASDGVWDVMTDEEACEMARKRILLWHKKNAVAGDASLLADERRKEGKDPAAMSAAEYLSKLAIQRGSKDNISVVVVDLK
Change | relative binding score [%]
Q51S | 3.81
K58Q | 10.2
F5N | -8.1
P36Q | 7.9
S150T | 43.5
D48R | -1.78
S171N | 31.1
T17M | 3.01
E4K | 4.19
I162P | 3.42
E130M | 12
R32Y | 12.2
L112P | 5.9
A84M | 49.7
K116N | 4.88
E174Q | 5.29

Study 4 — method: RNA Bind-n-Seq; form: RNA; matrix: in vitro; concentration: 20 nM; notes: 6-mer, flanks averaged, single round; together with: 150 mM KCl; reference: input library; reading: higher = stronger binding
Target: TAR DNA-binding protein 43, full length, His tag (TARDBP, Homo sapiens, UniProt Q13148, residues 1-414)
Strand | 6-mer enrichment (R)
UAAACG | 0.674
AUCAUA | 0.577
GAAUCC | 0.644
UUUACG | 0.634
GCAAAG | 1.15
GGUCUC | 0.837
CUGGGA | 1.85
CCGUAC | 0.624
GAUACU | 0.619
UCCGCU | 0.588
CAAAUC | 0.577

Study 5 — target: CCNA2, cyclin fold, Cln2 fusion (human); method: yeast growth competition, sequencing; matrix: yeast; notes: strong parent motif; reference: not given; reading: higher = stronger binding
Starting sequence: RB1 docking peptide (human); PKPLKKLRFDIEG
Change | normalised enrichment score
PKPLKKLRFDIET [G13T] | 0.432
PKPLKKLRFYIEG [D10Y] | 1.44
PKPIKKLRFDIEG [L4I] | 2.03
PKPLKHLRFDIEG [K6H] | 1.59
PKLLKKLRFDIEG [P3L] | 1.53
AKPLKKLRFDIEG [P1A] | 0.936
PKPLKKLRFDDEG [I11D] | 1.01
PKPLKKLRFMIEG [D10M] | 2.36
PKPLKKLLFDIEG [R8L] | 0.912
PKPLKKLRFPIEG [D10P] | 1.19
PKPLQKLRFDIEG [K5Q] | 0.857
PKPLKKLRFRIEG [D10R] | 2.93
PKPLKKDRFDIEG [L7D] | -0.343
PKPEKKLRFDIEG [L4E] | 0.723
PKPLKFLRFDIEG [K6F] | 1.15
PKPLKKLRFDISG [E12S] | 1.2
PKPLKKLRFDIEK [G13K] | 1.48
PKPLKKHRFDIEG [L7H] | 0.984

Study 6 — method: universal PBM; form: double-stranded DNA, one strand shown; matrix: in vitro; concentration: not given; reading: higher = stronger binding
Target: Sal-like protein 4, full length isoform B (SALL4, Homo sapiens, UniProt Q9UJQ4-2, residues 1-616)
Notes: 8-mer, flanks averaged, mean of replicates
Construct (chain): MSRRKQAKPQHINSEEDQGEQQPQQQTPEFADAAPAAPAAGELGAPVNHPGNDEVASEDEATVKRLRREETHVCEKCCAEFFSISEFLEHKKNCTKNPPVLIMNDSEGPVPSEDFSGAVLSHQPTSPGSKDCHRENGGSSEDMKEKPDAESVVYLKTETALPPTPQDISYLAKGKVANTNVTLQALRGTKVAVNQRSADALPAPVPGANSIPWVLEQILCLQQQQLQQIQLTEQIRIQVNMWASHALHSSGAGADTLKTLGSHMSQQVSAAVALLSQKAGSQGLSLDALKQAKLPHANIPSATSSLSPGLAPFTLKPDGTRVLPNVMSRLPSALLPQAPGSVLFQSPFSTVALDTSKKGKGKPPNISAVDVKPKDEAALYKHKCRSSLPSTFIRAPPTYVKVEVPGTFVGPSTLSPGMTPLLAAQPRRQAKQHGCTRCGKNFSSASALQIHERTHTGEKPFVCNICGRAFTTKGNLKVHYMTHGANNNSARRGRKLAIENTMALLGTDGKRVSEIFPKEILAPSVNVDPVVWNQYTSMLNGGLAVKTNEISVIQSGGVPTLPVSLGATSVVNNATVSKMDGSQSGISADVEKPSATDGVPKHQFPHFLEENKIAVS
Strand | E-score
AAGGTCCG | -0.298
CAATCTGC | -0.0612
GCAGCTAC | -0.153
GATGCTCC | -0.115
CCTAGAAG | -0.00071
TATTTCGA | 0.301
CTGACATC | -0.0601
AGAAATAG | 0.24
CCCGCCAG | -0.171
ACAGGCCG | -0.198
GTTTATAA | 0.352
CCGCGCGG | -0.213
GGTGCCTA | -0.154
ATTGTCCG | 0.153
ATCCTTGC | -0.0289
CGACCCAA | -0.0428
CGTCATAA | 0.33
ACACTGAG | -0.166
CTCGTACC | 0.0423
AACCCCCC | -0.252
ATCTAGAT | 0.0904

Excerpt of the above (study 1):
Change | binding fitness
T37N | -0.178 natural log
A49T | -1.08 natural log
K34T | -0.395 natural log
T37W | -0.302 natural log
K34C | -0.355 natural log
A46H | -0.418 natural log
E32C | -0.914 natural log
K36R | -0.181 natural log
N42I | -1.42 natural log
V35H | -1.27 natural log
L45M | -0.655 natural log
T48D | -0.816 natural log
K34D | -0.303 natural log
